Published values gathered from unrelated publications.
Protocols differ between the studies behind these lines. Several values in a cell are separate wells, animals, samples, runs or records. Numbers after ± are the reported error.
HTR2C: 5-hydroxytryptamine receptor 2C (HTR2C, Homo sapiens, UniProt P28335)
HTR7: 5-hydroxytryptamine receptor 7 (HTR7, Homo sapiens, UniProt P34969)
TGFBR2: TGF-beta receptor type-2 (TGFBR2, Homo sapiens, UniProt P37173)
nusB with NusE: Transcription antitermination protein NusB, with NusE (nusB, Bacillus subtilis, UniProt P54520)
HDAC4: Histone deacetylase 4 (HDAC4, Homo sapiens, UniProt P56524)
gag-pol integrase: Gag-Pol polyprotein, integrase (gag-pol, Human immunodeficiency virus type 1 group M subtype B, UniProt P04585)

| SMILES | target | assay | test system | setting | inhibition |
| --- | --- | --- | --- | --- | --- |
| COc1ccc(-c2ccc3c(C(=O)c4cc(OC)c(OC)c(OC)c4)c[nH]c3c2)cc1 | Tubulin alpha-1B chain/TUBB2B (Bos taurus, UniProt P81947+Q6B856) | tubulin polymerization, turbidimetry | – | concentration not given | inhibited |
| OCCCN1CC[C@@H]2C[C@H]1c1cc(-c3ccc(C(F)(F)F)cc3)ccc12 | HTR2C | radioligand binding, PDSP competition binding | – | 10 µM | < 50% |
| O=C(CN1CCO[C@H](COc2cccnc2)C1)N1CCc2ccccc21 | HTR7 | radioligand binding | – | concentration not given, with: [3H]LSD | -1.2% |
| Fc1ccc(-c2c(-c3ccncc3)ncn2-c2ccccc2)cc1 | TGFBR2 | inhibitor | – | 1 µM | 28% |
| CCNC(=O)Nc1cccc(OC/C=C\COc2cccc(NC(=O)NCC)c2)c1 | nusB with NusE | NusE binding, inhibitor, competitive ELISA | – | 25 µM | 15% |
| CC(C)c1noc2ncc(C(=O)c3ccccc3O)cc12 | SCN4A (Homo sapiens, UniProt P35499) | ion current, inhibitor, whole-cell patch clamp | – | 10 µM | 3.79% and 0.63% and 0.1% and 2.67% and 1.5% |
| COc1c([C@H]2[C@H](C(=O)Nc3ccnc(C(N)=O)c3)O[C@@](C)(C(F)(F)F)[C@H]2C)ccc(F)c1F | SCN10A (Homo sapiens, UniProt Q9Y5Y9) | ion current, antagonist, whole-cell patch clamp | HEK293T cells | 10 nM, half-inactivated state (TP2) | 96.8% |
| Cc1cc(-c2ccnc3[nH]cc(F)c23)cc(F)c1[C@@]1(O)[C@H](C)CN(C(=O)CN)C[C@@H]1C | ROCK1 and ROCK2 | ATP probe binding, KiNativ, item: Lys2 site | HEK293T cell lysate | 10 µM | 60.2% |
| Cc1ccc(-n2nc(C)c3conc3c2=O)cc1 | GRM2 (Homo sapiens, UniProt Q14416) | cAMP accumulation, antagonist | – | 10 µM, with: glutamate 1 µM, forskolin | -37% |
| Oc1ccc(-c2nc(-c3ccncc3)c(-c3ccc(F)cc3)[nH]2)cc1 | TGFBR2 | inhibitor | – | 1 µM | 34% |
| O=C(/C=C/c1cccc(OS(=O)(=O)Oc2ccc(C(F)(F)F)cc2)c1)NO | HDAC4 | – | – | 10 µM | 14% |
| COc1cccc(OC[C@@H]2CN(CCN3CCc4ccccc43)CCO2)c1 | HTR7 | radioligand binding | – | concentration not given, with: [3H]LSD | 22.6% |
| Nc1ncnc2c1ncn2C1OC(CSCCNCc2cccc(-c3ccccc3)c2)C(O)C1O (centres unmarked) | N6-adenosine-methyltransferase catalytic subunit, with METTL14 (METTL3, Homo sapiens, UniProt Q86U44) | – | – | 10 µM | 59% |
| O=C(CN1CCO[C@@H](COc2ccccn2)C1)N1CCc2ccccc21 | HTR2C | radioligand binding | – | concentration not given, with: [3H]mesulergine | 28.7% |
| Cn1cc(-c2ccccc2)c2ccc(-c3ccsc3)nc21 | gag-pol integrase | strand transfer, inhibitor | HIV-1 | 10 µM | 41.6% |
| Cc1nc(-c2ccc(OC/C=C\COc3ccc(-c4noc(C)n4)cc3)cc2)no1 | nusB with NusE | NusE binding, inhibitor, competitive ELISA | – | 25 µM | 13% |
| CN1CCN(c2cc(-c3ccncc3)c(-c3ccc4ccccc4c3)nn2)CC1 | GHSR (Homo sapiens, UniProt Q92847) | antagonist, FLIPR | – | 10 µM | -19.7% |
| O=C(Nc1cccc2c(=O)cc(-c3nnn[nH]3)oc12)c1ccc(OCCCCc2ccccc2)cc1 | LRRC8A/LRRC8C (Homo sapiens, UniProt Q8IWT6+Q8TDW0, M48D/T48D) | ion current, whole-cell patch clamp | HCT LRRC8-/- cells | 10 µM, +100 mV, T48D/M48D heteromers | 4.72% and 0.627% and 3.06% |
| NC/C(=C\F)COc1cccc(Cn2c(=S)[nH]c(=O)c3[nH]cnc32)c1 | Protein-lysine 6-oxidase (Homo sapiens, UniProt P28300) | enzyme activity, inhibitor | – | 30 µM | 52.1% |
| COc1ccc2c(c1)C(=O)N(CCCN1CCN(c3ccccc3OC)CC1)C2 | HTR7 | radioligand binding | – | concentration not given, with: [3H]LSD | 88.4% |
| O=C(O)c1cn(C2CC2)c2cc(N3CCNCC3)c(F)cc2c1=O | gyrA (Escherichia coli K-12, UniProt P0AES4) | enzyme activity, inhibitor, DNA supercoiling | – | 0.01 µM | 15.9% |
| CCNC(=O)c1cnn(-c2ccc(-n3ccc(Cl)c(Cl)c3=O)cc2)c1C(F)(F)F | Short transient receptor potential channel 7 (Homo sapiens, UniProt Q9HCX4) | ion current, inhibitor, whole-cell patch clamp | – | 10 µM, with: carbachol | inhibited |
| O=C1c2ccccc2CCCN1CCCCN1CCN(c2ccccn2)CC1 | HTR7 | radioligand binding | – | concentration not given, with: [3H]LSD | 98.4% |
| CCN1CCN(Cc2ccc(NC(=O)c3ccc(C)c(/C=C/c4cnc5[nH]ccc5c4OC)c3)cc2C(F)(F)F)CC1 | NEK8 (Homo sapiens, UniProt Q86SG6) | – | A-375 | 5 µM | -27.6% |
| NOCc1ccc2nc(-c3ccccc3)c(Nc3ccc(C(=O)O)cc3)n2c1 | TDP1 (Homo sapiens, UniProt Q9NUW8) | enzyme activity, inhibitor | – | 100 µM, unpurified compound | -5.3% and 4.2% and 3.1% |

| SMILES | target | assay | test system | setting | inhibition |
| --- | --- | --- | --- | --- | --- |
| [2H]c1cc(C)c(NC(=O)c2cnc(Nc3cc(N4CCCCC4)nc(C)n3)s2)c(Cl)c1 | MKNK1 (Homo sapiens, UniProt Q9BUB5) | – | – | 0.01 µM | < 30% |
| O=c1oc(-c2cccnc2)nc2ccccc12 | Cathepsin G (CTSG, Homo sapiens, UniProt P08311) | enzyme activity, inhibitor, chromogenic substrate hydrolysis | – | concentration not given, pH 7.4, 37 °C | inhibited |
| O=C(NO)c1ccc(CN2CCCCc3ccccc32)c(F)c1 | HTR7 | radioligand binding, radioligand displacement | – | 10 µM, mean of replicates | -1.05% |
| Cc1ccc(-c2cn(C)c3nc(Cl)ccc23)cc1 | gag-pol integrase | strand transfer, inhibitor | HIV-1 | 10 µM | 41% |
| Cn1cnc(Br)c1C1=CN(c2ncnc3[nH]cnc23)CCS1 | PRKD3 (Homo sapiens, UniProt O94806) | kinase activity, HotSpot | – | 2 µM | 94.4% |
| O=C(NO)c1cncc(OS(=O)(=O)Oc2ccc3ccccc3c2)c1 | HDAC4 | – | – | 10 µM | 33% |
| CCN1/C(=C/C(C)=O)Sc2ccc(F)cc21 | Androgen receptor (Ar, Rattus norvegicus, UniProt P15207) | – | – | 10 µM | 1.93% |
| Cc1ccc(-c2ccc3c(-c4ccccc4)cn(C)c3n2)cc1 | gag-pol integrase | strand transfer, inhibitor | HIV-1 | 10 µM | 51.7% |
| CN(C(=O)n1cnc(-c2ccc[n+]([O-])c2)c1)C1CCCCC1 | TBXA2R (Homo sapiens, UniProt P21731) | – | – | 10 µM | -4.78% |
| CCNC(=O)Nc1ccccc1OC/C=C\COc1ccccc1NC(=O)NCC | nusB with NusE | NusE binding, inhibitor, competitive ELISA | – | 25 µM | 11% |
| COc1cc(C(=O)NS(=O)(=O)c2ccccc2C)ccc1Cc1cn(C)c2ccc(NC(=O)OC3CCCC3)cc12 | LRRC8A/LRRC8C (Homo sapiens, UniProt Q8IWT6+Q8TDW0, L134K/L136K) | ion current, whole-cell patch clamp | HCT LRRC8-/- cells | 3 µM, +100 mV, L134K/L136K heteromers | 34% and 71.1% and 48.6% and 26.8% and 48.9% |
| COc1ccc(Cn2cc(-c3ccsc3)c3ccc(-c4ccncc4)nc32)cc1 | gag-pol integrase | strand transfer, inhibitor | HIV-1 | 10 µM | 15.9% |
| COc1ccc2c(c1)CN(CCCN1CCN(c3ccccc3OC)CC1)C2=O | HTR7 | radioligand binding | – | concentration not given, with: [3H]LSD | 84.8% |
| O=C(NCCCNS(=O)(=O)c1ccc(OC(F)(F)F)cc1)C1=Cc2ccccc2S1(=O)=O | PTPN2 (Homo sapiens, UniProt P17706) | enzyme activity | – | 25 to 30 µM, phosphatase selectivity panel | no inhibition |
| CCNC(=O)Nc1ccc(OCc2cccc(COc3ccc(NC(=O)NCC)cc3)c2)cc1 | nusB with NusE | NusE binding, inhibitor, competitive ELISA | – | 25 µM | 10% |
| Cc1cc(-c2ccnc3[nH]cc(F)c23)cc(F)c1[C@@]1(O)[C@H](C)CN(C2CCS(=O)(=O)CC2)C[C@@H]1C | ROCK1 and ROCK2 | ATP probe binding, KiNativ, item: Lys2 site | HEK293T cell lysate | 0.1 µM | -11.8% |
| O=C(C[C@@H](C(F)F)n1ccc(F)n1)N1CCC(O)(Cn2cnc3c(cnn3-c3ccc(F)cc3)c2=O)CC1 | USP7 (Homo sapiens, UniProt Q93009) | enzyme activity, inhibitor | – | 0.05 µM | 89.4% and 77.1% |
| Cn1cc(-c2ccccc2)c2ccc(Cl)nc21 | gag-pol integrase | strand transfer, inhibitor | HIV-1 | 10 µM | 14.4% |
| Cc1ccc(OC[C@@H]2CN(CCN3CCc4ccccc43)CCO2)cn1 | HTR2C | radioligand binding | – | concentration not given, with: [3H]mesulergine | 7.1% |
| O=C(c1ccc(F)cc1)C1CCN(CCn2c(=O)[nH]c3ccccc3c2=O)CC1 | HTR2A (Homo sapiens, UniProt P28223) | – | – | 10 µM | 99.6 ± 1.4% |
| c1cncc(OC[C@@H]2CN(CCN3CCc4ccccc43)CCO2)c1 | HTR7 | radioligand binding | – | concentration not given, with: [3H]LSD | 17.7% |
| C[S+]([O-])c1ccc(-c2nc(-c3ccncc3)c(-c3ccc(F)cc3)[nH]2)cc1 (centres unmarked) | TGFBR2 | inhibitor | – | 1 µM | 52% |
| CC(C)(NC(=O)O[C@@H]1CN2CCC1CC2)c1csc(-c2ccc(F)cc2)n1 | SETD7 (Homo sapiens, UniProt Q8WTS6) | enzyme activity, inhibitor | – | 100 µM | no inhibition |
| CC[C@@H]1[C@H](F)C(=O)N[C@@H]1COc1nccc2cc(C(N)=O)c(OC)cc12 | PIKFYVE (Homo sapiens, UniProt Q9Y2I7) | ATP probe binding, KiNativ profiling, item: ATP loop probe site | THP-1 cell lysate | 0.04 mM | 8.8% |
| Fc1ccc(-c2c(-c3ccncc3)ncn2-c2ccc3ccccc3c2)cc1 | TGFBR2 | inhibitor | – | 1 µM | 36% |

Excerpt of the above:
| SMILES | target | assay | test system | setting | inhibition |
| --- | --- | --- | --- | --- | --- |
| O=C(NCCCNS(=O)(=O)c1ccc(OC(F)(F)F)cc1)C1=Cc2ccccc2S1(=O)=O | PTPN2 (Homo sapiens, UniProt P17706) | enzyme activity | – | 25 to 30 µM, phosphatase selectivity panel | no inhibition |
| COc1ccc2c(c1)C(=O)N(CCCN1CCN(c3ccccc3OC)CC1)C2 | HTR7 | radioligand binding | – | concentration not given, with: [3H]LSD | 88.4% |
| Cc1cc(-c2ccnc3[nH]cc(F)c23)cc(F)c1[C@@]1(O)[C@H](C)CN(C2CCS(=O)(=O)CC2)C[C@@H]1C | ROCK1 and ROCK2 | ATP probe binding, KiNativ, item: Lys2 site | HEK293T cell lysate | 0.1 µM | -11.8% |
| C[S+]([O-])c1ccc(-c2nc(-c3ccncc3)c(-c3ccc(F)cc3)[nH]2)cc1 (centres unmarked) | TGFBR2 | inhibitor | – | 1 µM | 52% |
| CN(C(=O)n1cnc(-c2ccc[n+]([O-])c2)c1)C1CCCCC1 | TBXA2R (Homo sapiens, UniProt P21731) | – | – | 10 µM | -4.78% |
| COc1c([C@H]2[C@H](C(=O)Nc3ccnc(C(N)=O)c3)O[C@@](C)(C(F)(F)F)[C@H]2C)ccc(F)c1F | SCN10A (Homo sapiens, UniProt Q9Y5Y9) | ion current, antagonist, whole-cell patch clamp | HEK293T cells | 10 nM, half-inactivated state (TP2) | 96.8% |
| CCNC(=O)Nc1cccc(OC/C=C\COc2cccc(NC(=O)NCC)c2)c1 | nusB with NusE | NusE binding, inhibitor, competitive ELISA | – | 25 µM | 15% |
| NOCc1ccc2nc(-c3ccccc3)c(Nc3ccc(C(=O)O)cc3)n2c1 | TDP1 (Homo sapiens, UniProt Q9NUW8) | enzyme activity, inhibitor | – | 100 µM, unpurified compound | -5.3% and 4.2% and 3.1% |
